# Assay results pooled from the literature.
# Lines come from different studies, so protocols differ. ± gives the spread as reported.
# AGTR2: Type-2 angiotensin II receptor (AGTR2, Homo sapiens, UniProt P50052)
# Chain of UniProt P50052 (whole entry, looked up): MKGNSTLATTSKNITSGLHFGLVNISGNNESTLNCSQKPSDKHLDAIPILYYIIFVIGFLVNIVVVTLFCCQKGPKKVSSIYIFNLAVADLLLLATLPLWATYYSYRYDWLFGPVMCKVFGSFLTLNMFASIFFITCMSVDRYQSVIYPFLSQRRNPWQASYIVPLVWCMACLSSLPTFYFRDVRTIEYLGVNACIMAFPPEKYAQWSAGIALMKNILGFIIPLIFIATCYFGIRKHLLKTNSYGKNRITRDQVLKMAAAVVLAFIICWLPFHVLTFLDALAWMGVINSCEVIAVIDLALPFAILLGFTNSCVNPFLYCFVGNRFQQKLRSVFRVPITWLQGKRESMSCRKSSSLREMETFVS
Structure (SMILES),tested on,test,system,setting,scale,endpoint,result
COc1cc(CCC(C)=O)ccc1O,mouse mAb 1-D6,"antibody binding, indirect competitive ELISA",,added: coating antigen 3-OVA,,IC50,23.6 ng/mL
O=C(O)c1ccc(/C=C2\SC(=S)N(Cc3cccc(C(F)(F)F)c3)C2=O)cc1,mouse BMDM,,,"concentration not given, added: nigericin",,ASC oligomerization,decreased
Cc1ncsc1-c1ccc(C(CO)NC(=O)C2CC(O)CN2C(=O)C(C(C)C)n2cc(-c3ccc(COc4c(-c5c(C)c(F)cc6[nH]ncc56)c(C5CC5)cc5c(N6CC7CC6CN7)nc(OC6CCOCC6)nc45)cc3)nn2)cc1 (stereo not shown),AsPC-1,"immunoblot, item: p-ERK, p-AKT, p-S6",,"concentration not given, 24 h",,phosphoprotein level,decreased
Cc1[nH]nc2c1N=C(c1ccccc1Cl)c1cnc(N3CCOCC3)cc1N2,HCC1806,"Western blot, item: phospho-Aurora A/B and phospho-histone H3",,"concentration not given, 24 h, nocodazole-synchronized",,phosphorylation,inhibited
CC1=CCC23OC2(C)CCC2C(CN(C)C)C(=O)OC2C13.Cl (stereo not shown),C6 rat glioma cells,,,"20 mg/mL, clonogenic",baseline: control,proliferation reduction,10.4 fold
COc1cc(CNC(=O)C[C@H](C)CCC=C(C)C)ccc1O,OVCAR-5 ovarian cancer cells,SRB,,"10 µM, 48 h",,growth percent,93.3%
CCOP(=O)(CC(=O)Nc1ccc(S(=O)(=O)N(CC(N)=O)c2ccc(N(CC(N)=O)S(=O)(=O)c3ccc(OC)cc3)c3ccccc23)cc1)OCC,mouse primary cortical neurons,"western blot, item: NDP52",,"20 µM, added: amyloid beta",,protein expression,increased
CC(C)(C)c1nc(-c2cccc(NS(=O)(=O)c3c(F)cccc3F)c2F)c(-c2ccnc(N)n2)s1.Cc1[nH]c2ccccc2c1CCNCc1ccc(/C=C/C(=O)NO)cc1,SK-MEL-28,flow cytometry,,"concentration not given, 48 h, concentration about IC50",,cells in G2/M phase,1.39%
COc1ccc([C@@H]2CC(=O)c3c(O)cc(O[C@@H]4O[C@H](CO[C@@H]5O[C@@H](C)[C@H](O)[C@@H](O)[C@H]5O)[C@@H](O[C@H]5O[C@H](CO)[C@@H](O)[C@H](O)[C@H]5O)[C@H](O)[C@H]4O)cc3O2)cc1O,MRC5,trypan blue exclusion,,"100 µg/mL, 24 h",,cell count,8330 ± 523
COc1cccc2c1C(=O)c1c(O)c3c(c(O)c1C2=O)C[C@@](O)(C(=O)CO)C[C@@H]3O[C@H]1C[C@H](N)[C@H](O)[C@H](C)O1,Huntington disease fibroblasts,,,"concentration not given, 4 h",,ROS production,increased
[64Cu+2].c1ccc(CNCc2ccc(CN3CCCN4CCNCCCN(CC4)CC3)cc2)nc1,CXCR4 (human),,"NOD/SCID mice, U87 xenografts, U87 control tumour",90 min post-injection,,tissue uptake,1.98 ± 0.49 %ID/g
NS(=O)(=O)Nc1ncnc(OCCOc2ncc(Br)cn2)c1-c1ccc(Br)cc1,,metabolite formation,"male Sprague-Dawley rat, liver microsomes",450 mg/kg daily for 4 weeks,,Vmax,405 ± 36 pmol/min/mg
CCCCCCCCCCCC(=O)NCCC(=O)N[C@H](CCCNC(=N)N)C(=O)N[C@H](CCCNC(=N)N)C(=O)N[C@H](CCCNC(=N)N)C(=O)N[C@H](CCCNC(=N)N)C(=O)N[C@H](CCCNC(=N)N)C(=O)N[C@@H](CCCNC(=N)N)C(=O)N[C@@H](CCCNC(=N)N)C(=O)N[C@@H](CCCNC(=N)N)C(=O)N[C@@H](CCCNC(=N)N)C(=O)N[C@@H](CCCCNC(=S)Nc1ccc2c(c1)C(=O)OC21c2ccc(O)cc2Oc2cc(O)ccc21)C(N)=O,Jurkat,flow cytometry,,"10 µM, 48 h, loaded 10 min at 37 °C, then washed","baseline: 0 h, higher = more retained",retained fluorescence,~20%
O=C(N/N=C/c1ccccn1)c1cc(-c2ccc(Cl)cc2)nc2ccccc12,LDR,"silenced GFP reporter derepression, microscopy",,overnight,baseline: sodium butyrate,Emax,61%
O=C1OCC2=C1C(c1cccc(Br)c1)C1=C(N2)C(=O)c2ccccc2C1=O (stereo not shown),SK-LU-1 cells,PI flow cytometry,,"0.08 µM, 24 h",,cells in G0/G1 phase,55.5%
C=C(CC)C(=O)c1ccc(OCC(=O)NCCNC(=O)COc2ccc(C(=O)C(=C)CC)c(Cl)c2Cl)c(Cl)c1Cl,CoC1/DDP cisplatin-resistant,"cell growth, CCK-8",,"1.0 µM, added: cisplatin",,sensitisation to cisplatin,~2 fold
COc1cc(COC(=O)C2C(C=O)=Cc3cc4c(cc3C2c2cc(OC)c(OC)c(OC)c2)OCO4)cc(OC)c1OC (stereo not shown),uninfected mouse splenocytes,,,,baseline: splenocyte CC50 over amastigote EC50,selectivity index,5
C=CC1CN(C(=O)NCC=CCSCC=CCNC(=O)N2CC(C=C)OC2=S)C(=S)O1 (stereo not shown),WB-F344 rat liver,hepatocyte damage,,"10 µM, added: D-galactosamine",,inhibition,70%
CC(C)c1cccc(C(C)C)c1-n1ccn(-c2c(C(C)C)cccc2C(C)C)c1=[Se].[Cl][Au],LoVo-OXP colon cancer cells,MTT,,,baseline: LoVo-OXP over LoVo IC50,resistance factor,1.1
O=C(O)CCC(NP(=O)(O)OCCC[C@@H](NC(=O)CC[C@H](NC(=O)CCCCCNC(=O)c1ccc([18F])cc1)C(=O)O)C(=O)O)C(=O)O (stereo partly shown),LNCaP,,,"concentration not given, 4 h",,internalization,92.1 ± 0.7%
CC/C=C\C/C=C\C/C=C\C/C=C\C/C=C\C/C=C\CCC(=O)Nc1ccn(C2OC(CO)C(O)C2(F)F)c(=O)n1 (stereo not shown),SF-268,NCI60 screen,,,,TGI,12.9 µM
N#Cc1cc(C(=O)OCC[18F])c(C(F)(F)F)nc1N1CCC(C(=O)NS(=O)(=O)c2ccc(Cl)s2)CC1,C6 P2Y12-positive,,,added: excess clopidogrel,baseline: unblocked,cellular uptake,decreased
COc1cc(CNC(=O)C[C@H](C)CCC=C(C)C)ccc1OCc1cn(-c2ccc([N+](=O)[O-])cc2)nn1,SNB-19 CNS cancer cells,SRB,,"10 µM, 48 h",,growth percent,84.8%
C=C(C)[C@@H]1CC[C@]2(C(=O)OCO/N=[N+](\[O-])N3CCCC3)CC[C@]3(C)[C@H](CC[C@@H]4[C@@]5(C)CC[C@H](OC(C)=O)C(C)(C)[C@@H]5CC[C@]43C)[C@@H]12,B16-F10,Annexin V/PI flow cytometry,,"1.0 µM, 36 h",,early apoptotic cells,7.35%
COc1cc(CNC(=O)C[C@H](C)CCC=C(C)C)ccc1OCc1cn(-c2ccc(C#N)cc2)nn1,M14 melanoma cells,SRB,,"10 µM, 48 h",,growth percent,88.2%
CCc1nc2ccc(N(Cc3ccccc3)C(=O)c3cccs3)cc2c(=O)n1Cc1ccc(-c2ccccc2-c2nn[nH]n2)cc1,AGTR2,"ligand displacement, radioligand",,,,Ki,0.34 nM
CC(=O)OC[C@H]1O[C@@H](Sc2sc(C(=O)c3ccc(Br)cc3)c(N)c2-c2nc3ccccc3s2)[C@H](OC(C)=O)[C@@H](OC(C)=O)[C@@H]1OC(C)=O,SF-268,SRB,,"10 µM, 48 h",baseline: untreated,growth,60.9%
CCCc1nc2ccc(N(Cc3ccco3)C(=O)c3ccccc3)cc2c(=O)n1Cc1ccc(-c2ccccc2-c2nnn[nH]2)cc1,AGTR2,"ligand displacement, radioligand",,,,Ki,0.35 nM
CC(C)=CCC1=C([O-])C(=O)c2ccccc2C1=O.CC(C)=CCC1=C([O-])C(=O)c2ccccc2C1=O.O.O.[Zn+2].c1cnc2c(c1)ccc1cccnc12,A2780,ICP-MS,,"concentration not given, 2 to 24 h",baseline: untreated cells,intracellular zinc level,≤ 10 fold
CCCCC(CC)CNC(=N)NC(=N)NCCCCCCCCNC(=N)NC(=N)NCC(CC)CCCC (stereo not shown),NCI-H1299,TMRM flow cytometry,,"1 µM, 48 h, added: oligomycin 1 µM",,cells unable to hyperpolarize,5.25%
COc1cc(CNC(=O)C[C@H](C)CCC=C(C)C)ccc1OCc1cn(-c2ccc(Cl)c(Cl)c2)nn1,M14 melanoma cells,SRB,,"10 µM, 48 h",,growth percent,89%
[64Cu+2].c1cnc(CNCc2ccc(CN3CCCN4CCNCCCN(CC4)CC3)cc2)nc1,CXCR4,,"NOD/SCID mouse, U87 and U87-stb-CXCR4 xenografts","iv, 90 min, no blocking dose",baseline: U87 tumour over muscle,tumour-to-tissue ratio,15.8 ± 7.01
Fc1cccc(CNc2nc(NCc3ccccc3)c3ccccc3n2)c1,SW-403,cell growth or viability,,72 h,,GI50,2600 nM
O=[N+]([O-])C(=C\Nc1ccccc1O)/C=N/c1ccccc1O,LDR,"silenced GFP reporter derepression, microscopy",,overnight,baseline: sodium butyrate,Emax,29%
COc1ccc([C@@H]2CC(=O)c3c(O)cc(O[C@@H]4O[C@H](CO[C@@H]5O[C@@H](C)[C@H](O)[C@@H](O)[C@H]5O)[C@@H](O)[C@H](O)[C@H]4O)cc3O2)cc1O,A549,"cell migration, scratch",,"50 µg/mL, 48 h",,gap closure,8.81 ± 2.52%
COc1cc(CNC(=O)C[C@H](C)CCC=C(C)C)ccc1OCc1cn(-c2ccc(Cl)cc2Cl)nn1,SNB-19 CNS cancer cells,SRB,,"10 µM, 48 h",,growth percent,50%
Oc1ccccc1-c1nn(-c2ccccn2)[n+](-c2ccccc2)n1.[Br-],A2780,LIVE/DEAD flow cytometry,,"40 µM, 48 h, added: ferric ammonium citrate 50 µM",,dead cells,2.4%
Cn1c2cc([S+](C)[O-])sc2c2cnn(Cc3cccc(N)c3)c(=O)c21 (stereo not shown),H1299,LC-MS/MS,,"25 µM, 36 h",,intracellular ribose phosphate,decreased
CCCCCCCCCCCCCC(=O)N1CCC[C@H]1C(=O)N[C@@H](CO)C(=O)N[C@@H](CCC(N)=O)C(=O)N[C@@H](CO)C(=O)N[C@@H](CCCCNC(=O)c1ccc(Br)cc1)C(=O)N[C@@H](CO)C(=O)N[C@@H](CCCCNC(=O)c1ccc(Br)cc1)C(=O)N[C@@H](C)C(=O)O,AsPC-1,annexin V/PI,,"200 µM, 48 h",,apoptotic cells,65%
Cc1ccc(C(C)C)cc1.O=C(N=P(c1ccccc1)(c1ccccc1)c1ccccc1)c1ccccn1.[Cl-].[Cl-].[Ru+2],Jurkat,flow cytometry,,"concentration not given, added: z-VAD-fmk 50 µM",,cells with ΔΨm loss,30%
FC(F)(F)c1ccnc(-c2cc(C(F)(F)F)ccn2)c1.FC(F)(F)c1ccnc(-c2cc(C(F)(F)F)ccn2)c1.[Cl-].[Cl-].[Ru+2].c1csc(-c2ccc(-c3ccc(-c4nc5c6cccnc6c6ncccc6c5[nH]4)s3)s2)c1,SK-MEL-28,cell viability,,"100 J/cm2 light, normoxia, added: visible light 400-700 nm",baseline: dark over light EC50,phototherapeutic index,920
CCCC[C@H](NC(=O)CCCCCCCNC(=O)CN1CCN(CC(=O)O)CCN(CC(=O)O)CC1)C(=O)N[C@H]1CC(=O)NCCCC[C@@H](C(N)=O)NC(=O)[C@H](Cc2c[nH]c3ccccc23)NC(=O)[C@H](CCCNC(=N)N)NC(=O)[C@@H](Cc2ccccc2)NC(=O)[C@H](Cc2c[nH]cn2)NC1=O [copper-64 labelled],,,"C57 mice, heart","intravenous, 0.37 MBq, 4 h",,tissue uptake,0.12 ± 0.06 %ID/g
CCCCCCCCN(CCC(=O)Nc1ccccc1)C(=O)C1CCCN1 (stereo not shown),progeroid mouse fibroblasts,"immunoblot, item: phospho-histone H2AX",,"2 µM, 14 d",,phospho-H2AX level,decreased
CCCCC/C=C/C(=O)CCc1ccc(O)c(OC)c1,mouse mAb 1-D6,"antibody binding, indirect competitive ELISA",,added: coating antigen 3-OVA,,IC50,1030 ng/mL
COc1cc(CNC(=O)C[C@H](C)CCC=C(C)C)ccc1OCc1cn(-c2cccc(C(F)(F)F)c2)nn1,SNB-19 CNS cancer cells,SRB,,"10 µM, 48 h",,growth percent,97.2%
COc1ccc(NC(=O)CSc2nc3c(oc4ccccc43)c(=O)n2Cc2ccco2)cc1Cl,LDR,"silenced GFP reporter derepression, microscopy",,overnight,baseline: sodium butyrate,Emax,37%
COc1ccc(CC2COC(=O)C2Cc2ccc3c(c2)OCO3)cc1OC (mixture of isomers),A2780,,,"IC50, 72 h",,colony formation,~80%
C=C1CC[C@H](OCCCNC(=O)CCOCCOCCOCCOCCOCCOCCOCCOCCOCCOCCOCCOCCOCCOCCOCCOCCOCCOCCOCCOCCOCCOCCOCCOCCOCCOCCOCCOCCOCCOCCOCCOCCOCCOCCOCCOCCNC(=O)CCN2C(=O)CC(SC[C@H](NC(=O)[C@H](Cc3ccccc3)NC(=O)[C@H](CC(N)=O)NC(=O)[C@H](Cc3c[nH]cn3)NC(=O)[C@@H](NC(=O)[C@H](CC(=O)O)NC(=O)[C@H](CCC(N)=O)NC(=O)[C@H](CC(C)C)NC(=O)[C@H](CCCCN)NC(=O)[C@H](CCCCN)NC(=O)[C@H](CCCNC(=N)N)NC(=O)[C@H](CC(C)C)NC(=O)[C@H](Cc3c[nH]c4ccccc34)NC(=O)[C@H](CCC(=O)O)NC(=O)[C@@H](NC(=O)[C@H](CCCNC(=N)N)NC(=O)[C@H](CCC(=O)O)NC(=O)[C@H](CCSC)NC(=O)[C@H](CO)NC(=O)[C@H](CC(N)=O)NC(=O)[C@H](CC(C)C)NC(=O)[C@H](Cc3c[nH]cn3)NC(=O)[C@H](CCCCN)NC(=O)CNC(=O)[C@H](CC(C)C)NC(=O)[C@H](CC(N)=O)NC(=O)[C@H](Cc3c[nH]cn3)NC(=O)[C@H](CCSC)NC(=O)[C@H](CC(C)C)NC(=O)[C@H](CCC(N)=O)NC(=O)[C@@H](NC(=O)[C@H](CCC(=O)O)NC(=O)[C@H](CO)NC(=O)[C@@H](NC(=O)[C@@H](N)CO)C(C)C)[C@@H](C)CC)C(C)C)C(C)C)C(N)=O)C2=O)C/C1=C/C=C1\CCC[C@]2(C)[C@@H]([C@H](C)CCCC(C)(C)O)CC[C@@H]12 (stereo partly shown),,,Sprague Dawley rat,"subcutaneous, 10 µg/kg daily, 89 days",baseline: 1 µg/kg dose,dose-normalized Cmax,1.34
COc1cc(CNC(=O)C[C@H](C)CCC=C(C)C)ccc1OCc1cn(-c2ccccc2[N+](=O)[O-])nn1,SNB-19 CNS cancer cells,SRB,,"10 µM, 48 h",,growth percent,66.4%
O=Cc1c(O)ccc2ccccc12,HUVEC,"RNA sequencing, item: PAPPA2",,"75 µM, 24 h",baseline: DMSO,log2 fold change,2.59
CN1CCN(c2ccc(Nc3ncc(Cl)c(Nc4ccccc4NS(=O)(=O)C4CC4)n3)cc2)CC1,Ba/F3 EGFR C797S,western blot,,"concentration not given, 24 h",,cleaved caspase-3 level,increased
N[C@@H](CCC(=O)N[C@@H](CS[Se]Cc1ccc(-c2cc(C(F)(F)F)nn2-c2ccc(S(N)(=O)=O)cc2)cc1)C(=O)NCC(=O)O)C(=O)O,melanoma cells,BrdU ELISA,,"15.5 µM, 24 h",,decrease in cell proliferation,~80%
